Measurements of several laboratories.
A part holds a random share of what one study measured. Several values in a cell are separate wells, animals, samples, runs or records.
UniProt P31645, sequence (whole entry, looked up): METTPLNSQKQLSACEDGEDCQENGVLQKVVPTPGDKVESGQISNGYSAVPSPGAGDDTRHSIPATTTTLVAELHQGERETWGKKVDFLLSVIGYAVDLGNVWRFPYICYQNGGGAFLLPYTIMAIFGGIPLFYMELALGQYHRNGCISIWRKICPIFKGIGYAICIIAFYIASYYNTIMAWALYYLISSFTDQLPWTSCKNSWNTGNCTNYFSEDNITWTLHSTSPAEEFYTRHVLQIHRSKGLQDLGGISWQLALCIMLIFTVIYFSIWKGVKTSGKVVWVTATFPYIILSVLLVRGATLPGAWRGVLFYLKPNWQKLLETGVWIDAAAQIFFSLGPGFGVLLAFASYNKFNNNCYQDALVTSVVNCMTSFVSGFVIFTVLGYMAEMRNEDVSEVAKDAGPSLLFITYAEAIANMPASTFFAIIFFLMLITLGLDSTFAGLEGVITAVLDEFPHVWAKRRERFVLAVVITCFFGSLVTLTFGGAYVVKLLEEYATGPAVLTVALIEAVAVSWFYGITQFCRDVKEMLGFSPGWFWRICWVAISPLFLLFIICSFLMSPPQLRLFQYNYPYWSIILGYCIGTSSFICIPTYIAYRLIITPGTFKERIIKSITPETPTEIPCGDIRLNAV

Set 1
SMILES: C[C@@H]1CN(c2ccc(-c3cc(C(=O)NCCOCCOCCOCCOCCOCCOCCNC(=O)/C=C/c4[nH]cc(C(=O)N[C@@H](CC(N)=O)c5ccc(F)c(Cl)c5)c4-c4ccc(Cl)cc4F)ccc3F)cc2NC(=O)c2ccc(F)cc2C(F)(F)F)C[C@H](C)N1C
Technique: ATPlite
Endpoint: viability
MV4-11 expressing HiBiT-WDR5; RPMI with 10% FBS; 3800 nM, 24 h: 88.3% and 112% and 93.4%
MV4-11; 2.15 µM, 5 days; reference: DMSO: 58.5% and 64.7% and 46.9% and 37.2%
MV4-11 expressing HiBiT-WDR5; RPMI with 10% FBS; 585 nM, 24 h: 113% and 108% and 98.1%
MV4-11; 0.1 µM, 5 days; reference: DMSO: 60.1% and 89.5% and 78.7% and 74.9%
MV4-11 expressing HiBiT-WDR5; RPMI with 10% FBS; 1510 nM, 24 h: 110% and 109% and 104%
MV4-11 expressing HiBiT-WDR5; RPMI with 10% FBS; 88.1 nM, 24 h: 109% and 89.4% and 107%

Set 2
Species: C57BL/6 IFN-γ knockout mouse female
Matrix: plasma
Route: oral
Dose: 10 mg/kg
Time: 1 h
Endpoint: plasma concentration
CCOC(=O)CN(C(=O)c1ccn2ncc(-c3ccc(C(=O)NC)cc3)c2c1)c1ccc(Cl)cc1: 301 nM and 336 nM
CNC(=O)c1ccc(-c2cnn3ccc(C(=O)N(C[C@H]4CCC(=O)O4)c4ccc(OC(F)(F)F)cc4)cc23)cc1: 46 nM and 18 nM and 31 nM
CN(C(=O)c1ccn2ncc(-c3ccc(C(N)=O)cc3)c2c1)c1ccc(C#N)cn1: 618 nM and 560 nM
COC(=O)c1cc(Cl)ccc1N(C)C(=O)c1ccn2ncc(-c3ccc(C(N)=O)cc3)c2c1: 44 nM and 30 nM

Further values, each from its own experiment
C[C@H](c1ccnc(Nc2nc3ccc(-c4cc(N(C)C)ncn4)cc3[nH]2)c1)N1CCN(C(=O)CC(F)(F)F)CC1
inhibition (Sodium-dependent serotonin transporter (SLC6A4, Homo sapiens, UniProt P31645); ligand displacement; 10 µM): 21.6%

O=C1CCC(N2Cc3cc(C4CCN(Cc5ccccc5)CC4)ccc3C2=O)C(=O)N1 (stereo not drawn)
oral bioavailability (Sprague Dawley rat, male, plasma; oral, 3.0 mg/kg): 41.3%
